# Results collected from several papers.
# Each line is one published result; not all experiments were run side by side. Several values in a cell are separate wells, animals, samples, runs or records. Numbers after ± are the reported error.
# USP13 ZnF-UBD domain: Ubiquitin carboxyl-terminal hydrolase 13, ZnF-UBD domain (USP13, Homo sapiens, UniProt Q92995)
# Chain of UniProt Q92995 (whole entry, looked up): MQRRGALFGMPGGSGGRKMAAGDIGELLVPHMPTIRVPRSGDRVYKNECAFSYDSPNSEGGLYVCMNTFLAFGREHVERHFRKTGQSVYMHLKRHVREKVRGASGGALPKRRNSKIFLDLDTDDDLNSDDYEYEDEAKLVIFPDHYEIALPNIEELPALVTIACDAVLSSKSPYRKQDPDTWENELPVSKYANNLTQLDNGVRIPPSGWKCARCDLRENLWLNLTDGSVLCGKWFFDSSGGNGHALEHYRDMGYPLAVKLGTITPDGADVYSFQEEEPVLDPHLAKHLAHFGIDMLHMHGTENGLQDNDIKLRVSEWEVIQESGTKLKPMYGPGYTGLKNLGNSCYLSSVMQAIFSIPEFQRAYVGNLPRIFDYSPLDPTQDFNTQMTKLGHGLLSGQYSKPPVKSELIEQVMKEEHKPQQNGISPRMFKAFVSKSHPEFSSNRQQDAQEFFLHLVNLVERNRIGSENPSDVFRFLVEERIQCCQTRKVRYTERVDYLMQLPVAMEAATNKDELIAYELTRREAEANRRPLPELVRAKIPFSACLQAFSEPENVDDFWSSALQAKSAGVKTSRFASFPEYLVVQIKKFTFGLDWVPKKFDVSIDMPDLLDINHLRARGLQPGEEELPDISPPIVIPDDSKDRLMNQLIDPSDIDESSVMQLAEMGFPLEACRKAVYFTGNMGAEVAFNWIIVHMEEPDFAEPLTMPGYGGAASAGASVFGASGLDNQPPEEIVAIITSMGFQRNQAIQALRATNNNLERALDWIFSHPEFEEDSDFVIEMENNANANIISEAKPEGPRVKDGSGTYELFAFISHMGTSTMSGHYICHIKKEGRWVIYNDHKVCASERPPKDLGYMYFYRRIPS
SMILES,target or system,assay,test system,setting,how to read,endpoint,result
Cc1cc(Nc2ncnc3ccc(NC4=NC(C)(C)CO4)cc23)ccc1Oc1ccn2ncnc2c1,,measured: Diarrhea,healthy volunteers,"oral, dose not given, grade 1-2",,drug-related adverse events,7.7%
CCCCC/C=C\C/C=C\CCCCCCCC(=O)O.Cc1cc(/C=C/C#N)cc(C)c1Nc1ccnc(Nc2ccc(C#N)cc2)n1,,,aqueous buffer,pH 4.5,,equilibrium solubility,0.09 ± 0.01 µg/mL
Cc1ncnc2c1ccn2[C@@H]1C[C@H](Oc2cc(C(F)F)c(F)c3c2CNCC3)[C@@H](O)[C@H]1O,,,human,"oral, 2 mg twice daily",,Cmin,21.6 ng/mL and 7.69 ng/mL
CCN1/C(=C/C(C)=O)Sc2ccc(F)cc21,,,cynomolgus monkey,"oral, 10 mg/kg, 2 h post-dose",,heart rate,114 ± 22 beats/min
C[C@@H](c1ncncc1F)[C@](O)(Cn1cncn1)c1ccc(F)cc1F,,,human,"oral, 200 mg, drug interaction trial",,any TEAE,9.1%
CC(=O)N(C)[C@H]1CCN(C(=O)c2cnc3c(c2)C[C@](C)(c2ccc(F)cc2)N3)C1,,,"male humans, plasma","oral, 60 mg once daily, geometric mean",,"linearity index (AUCt,ss/AUC0-inf)",1.01
N#Cc1ccc2c(c1)[C@H]1CCCN(C(=O)c3ccc4[nH]cnc4c3)[C@H]1C2,,,human,"160 mg, day 15",,median ACTH level,4.2 pmol/L
CC(C(=O)NCC(=O)NCC(CNC(=O)CNC(=O)C(C)N1CCN(CC(=O)[O-])CCN(CC(=O)[O-])CCN(CC(=O)[O-])CC1)(CNC(=O)CNC(=O)C(C)N1CCN(CC(=O)[O-])CCN(CC(=O)[O-])CCN(CC(=O)[O-])CC1)CNC(=O)CNC(=O)C(C)N1CCN(CC(=O)[O-])CCN(CC(=O)[O-])CCN(CC(=O)[O-])CC1)N1CCN(CC(=O)[O-])CCN(CC(=O)[O-])CCN(CC(=O)[O-])CC1.[Gd+3].[Gd+3].[Gd+3].[Gd+3] (stereo not shown),,,"cynomolgus monkey, pons","dose not given, day 5",,lanthanide concentration,0.031 ± 0.02 nmol/g
CCN1CCN(Cc2ccc(NC(=O)c3ccc(C)c(NC(=O)c4cncc(-c5cccs5)c4)c3)cc2C(F)(F)F)CC1,,,"C57BL/6 mice, epithelial lining fluid","intraperitoneal, 20 mg/kg",,apparent clearance,51 mL/min/kg
Cc1ccc(C(=O)N(CCCN)C(c2nc3snc(C)c3c(=O)n2Cc2ccccc2)C(C)C)cc1 (stereo not shown),,,human patients,"intravenous, 18 mg/day",,grade ≥3 hyperbilirubinemia patients,0%
N#Cc1ccccc1[C@@H]1COC[C@]2(CCOc3ccccc32)N1,,"shake-flask, LC-HRMS",aqueous buffer,"16 h, pH 6.8",,solubility,> 750 µM
CCCC[C@H]1CC[C@H](c2ccc(C#N)cc2)CC1,,,"Sprague-Dawley rat, female, placenta","1000 ng/mL in perfusate, 50 (unit not given), middle dose, mixture of 21 LCMs",,placental accumulation,20 ± 25.8 ng/g
C[C@@H](Nc1cc(F)cc(F)c1)c1cc(C(=O)N(C)C)cc2c(=O)cc(N3CCOCC3)oc12,,measured: Diarrhea,advanced solid tumour patients,"oral, dose not given, dose expansion",,patients discontinuing for AE,0%
Cn1cc(-c2ccc(-c3cncc(Cl)c3N3CCC4(CCNC4=O)CC3)cc2)cn1,COLO 205,"gene expression, microarray, measured: ABCC3 mRNA",,"concentration not given, 2 h",baseline: untreated cells,log2 fold change,4.64
Fc1ccc([C@@H]2COC[C@H](c3ccc4c(c3)OCCO4)N2)c2ccccc12,,"shake-flask, LC-HRMS",aqueous buffer,"16 h, pH 6.8",,solubility,< 4 µM
Nc1ccccc1/C=C/C(=O)c1ccccc1,,,toluene,20 °C,,Stokes shift,92 nm
CCOc1c([C@H](C)n2nc(C)c3c(N)ncnc32)cc(Cl)c(F)c1[C@@H]1CNC(=O)C1,,,"patients, monotherapy","oral, 30 mg once daily, cycle 1 day 1",,Cmax,3270 ± 775 nM
CC(C)n1c(Nc2cccnc2)nc2cnc(Nc3ccc(N4CCN(C)CC4)cc3)nc21,,measured: urine leukocytes positive,healthy male subjects,"oral, 100 mg, study, added: gemfibrozil",,subjects with adverse event,0%
Cn1cc([C@H]2COC[C@@H](c3ccc(C(F)(F)F)cc3)N2)cn1,,"shake-flask, LC-HRMS",aqueous buffer,"16 h, pH 6.8",,solubility,> 750 µM
CNC(=O)c1ccc(-c2cnc3ncc(Cc4ccc5ncccc5c4)n3n2)cc1F,,measured: Hypoalbuminemia,gastric cancer patients,"oral, 600 mg twice daily, expansion cohort, grade 3-4",,patients with adverse event,0%
NC[C@@H]1O[C@H](O[C@H]2[C@@H](O)[C@H](O[C@@H]3[C@@H](O)[C@H](N)C[C@H](N)[C@H]3O[C@H]3O[C@H](CO)[C@@H](O)[C@H](O)[C@H]3N)O[C@@H]2CO)[C@H](N)[C@@H](O)[C@@H]1O,,,NSG mice,"dose not given, day 2 of treatment",,body weight,20.4 g and 21.3 g and 23.4 g and 23.6 g and 22.2 g and 22 g and 22.4 g and 22.7 g
O=c1[nH]c(=O)n([C@@H]2O[C@H](CO)[C@@H](O)[C@@H]2F)cc1CCC[18F],,,"nude mice, RG2 tumour, bone","intravenous, dose not given, 2 h",,biodistribution,0.77 ± 0.27 %ID/g
C[C@@H](Oc1ccc(S(C)(=O)=O)cc1C(=O)N1C[C@@H]2C[C@]2(c2cc(C(F)(F)F)on2)C1)C(F)(F)F,,,"elderly humans, plasma","oral, 50 mg once daily, geometric mean","baseline: AUCtau,ss over AUC(0-inf)",linearity index,0.865
C=CC(=O)NC1CCN(c2ncc3ncnc(Nc4ccc(Oc5ccc6c(c5)ncn6C)c(C)c4)c3n2)CC1,,measured: GGT increased,human male,"oral, dose not given, CTCAE on-treatment AEs",,adverse events incidence,0%
O=C(O)CCCCCCCCC(=O)O,,,"human, plasma",control,,Cmin,15.3 ± 0.9 nM
CN(C)C(=N)N=C(N)N,,,healthy human subjects,"oral, dose not given",,vascular disorder adverse events,0%
CS(=O)(=O)N(CC(=O)Nc1ccccc1C(=O)N1CCOCC1)c1ccc(Cl)cc1,,,aqueous buffer,pH 7.4,,solubility,< 3.23 µg/mL
CNCCOC12CC3(C)CC(C)(CC(Cn4ncc(-c5ccc(N6CCc7cccc(C(=O)Nc8nc9ccccc9s8)c7C6)nc5C(=O)O)c4C)(C3)C1)C2,,,"beagle dog, male, anaesthetised","intravenous bolus, 0.03 mg/kg, 120 min",baseline: baseline,QRS duration change,1 ms
O=C(CSc1nnc(-c2ccc([N+](=O)[O-])cc2)n1-c1ccccc1)N1CCOCC1,,,aqueous buffer,pH 7.4,,solubility,3.57 µg/mL
CCc1ccc(-c2ccc(-c3cc(F)c(F)c(F)c3)c(F)c2)cc1,,,"rat, placenta","5000 ng/mL in perfusate, high dose, mixture of 21 LCMs",,placental accumulation,395 ± 541 ng/g
N#Cc1cc([C@H]2COC[C@@H](c3ccc(-c4ccccn4)cc3)N2)ccc1F,,"shake-flask, LC-HRMS",aqueous buffer,"16 h, pH 6.8",,solubility,< 4 µM
Cc1cc([C@H]2C[C@H]3[C@@H](C)SC(N)=N[C@@]3(c3ccc(F)cc3F)CO2)on1,,,mouse,"subcutaneous, 50 mg/kg, 18 h",,CSF concentration,not detected
CCO[C@H]1CCN(Cc2c(OC)cc(C)c3[nH]ccc23)[C@H](c2ccc(C(=O)O)cc2)C1,,,"healthy volunteers, plasma","oral, 200 mg single dose, median",,total Cmax,3600 ng/mL
Fc1ccc([C@@H]2COC[C@H](c3cccc(Br)c3)N2)cc1,,"shake-flask, LC-HRMS",aqueous buffer,"16 h, pH 6.8",,solubility,< 4 µM
CC(C)C[C@H](NC(=O)C[C@H](O)[C@H](CC(C)C)NC(=O)[C@H](Cc1c[nH]cn1)NC(=O)CNC(=O)[C@@H](NC(=O)[C@H](C)NC(=O)[C@H](Cc1c[nH]c2ccccc12)NC(=O)[C@H](CCC(N)=O)NC(=O)[C@@H](Cc1ccccc1)NC(=O)COCCOCCNC(=O)CN1CCN(CC(=O)O)CCN(CC(=O)O)CCN(CC(=O)O)CC1)C(C)C)C(N)=O [lutetium-177 labelled],,,"female BALB/c nu/nu mice, kidneys","intravenous, 50 pmol, 1 h",,tissue uptake,3.4 ± 0.5 %ID/g
CC(C)(C(=O)N1CCOc2c(C#N)cncc2C1)C(F)F,,measured: chest discomfort,human,"oral, 20 mg twice daily, 14 days, multiple ascending dose",,subjects with adverse event,0%
O=C(O)CCC(=O)c1cccs1,USP13 ZnF-UBD domain,,,,,Kd,194 µM
CO[C@@H]1[C@H](O)[C@@H](CO)O[C@H]1n1c([N+](=O)[O-])nc2c(=O)[nH]c(N)nc21,,"depurination, RP-HPLC",citrate-phosphate buffer 0.5 mM,"1608 min, pH 2, 37 °C",,nucleoside remaining fraction,0.241
O=C(Cn1c(NCCO)nc2ccccc21)c1cccc([N+](=O)[O-])c1,,,aqueous buffer,pH 7.4,,solubility,2.38 µg/mL
Cc1cccc(CNC(=O)c2cn(CCNC(=O)c3ccccc3S)c3cc4c(cc3c2=O)OC(F)(F)O4)n1,,,"Sprague-Dawley rat, male, whole blood","intramuscular, 3 mg/kg of parent drug",,MRT(0-inf),8.67 h
O=C(O)CCC(=O)O.[2H]C([2H])([2H])Oc1cc(C)c2[nH]ccc2c1CN1CC[C@@H](C2CC2)C[C@H]1c1ccc(C(=O)O)cc1,,,healthy Chinese subjects,"oral, 100 mg, single ascending dose",,subjects with elevated uric acid,0%
COc1ncc(-c2nc3c(n2C(C)C)[C@H](c2ccc(Cl)cc2)N(c2cc(Cl)cn(C)c2=O)C3=O)c(OC)n1,,,"human patients, plasma","oral, 7.5 mg, low-dose arm, cycle 1 day 8",,median Tmax,4 h
Cn1cc([C@H]2COC[C@H](c3cc(Cl)cc(Cl)c3)N2)cn1,,"shake-flask, LC-HRMS",aqueous buffer,"16 h, pH 6.8",,solubility,> 750 µM
C=CC(=O)Nc1cc(Nc2nccc(-c3cn(C4CC4)c4ccccc34)n2)c(OC)cc1N(C)CCN(C)C,,,"BALB/c nude mouse, LU0387 xenograft, blood","oral, 40 mg/kg",,NRBC percentage,0.32 ± 0.08%
O=C(O)Cc1cccc2cccnc12,USP13 ZnF-UBD domain,,,,,Kd,> 1000 µM
Cc1ccc(C)c(OCCCC(C)(C)C(=O)O)c1,,,"human, plasma","oral, dose not given, day 12 predose, median",,trough plasma concentration,1680 ng/mL

# Repeated from above:
SMILES,target or system,assay,test system,setting,how to read,endpoint,result
Cc1ccc(C(=O)N(CCCN)C(c2nc3snc(C)c3c(=O)n2Cc2ccccc2)C(C)C)cc1 (stereo not shown),,,human patients,"intravenous, 18 mg/day",,grade ≥3 hyperbilirubinemia patients,0%
N#Cc1ccc2c(c1)[C@H]1CCCN(C(=O)c3ccc4[nH]cnc4c3)[C@H]1C2,,,human,"160 mg, day 15",,median ACTH level,4.2 pmol/L
CC(C)C[C@H](NC(=O)C[C@H](O)[C@H](CC(C)C)NC(=O)[C@H](Cc1c[nH]cn1)NC(=O)CNC(=O)[C@@H](NC(=O)[C@H](C)NC(=O)[C@H](Cc1c[nH]c2ccccc12)NC(=O)[C@H](CCC(N)=O)NC(=O)[C@@H](Cc1ccccc1)NC(=O)COCCOCCNC(=O)CN1CCN(CC(=O)O)CCN(CC(=O)O)CCN(CC(=O)O)CC1)C(C)C)C(N)=O [lutetium-177 labelled],,,"female BALB/c nu/nu mice, kidneys","intravenous, 50 pmol, 1 h",,tissue uptake,3.4 ± 0.5 %ID/g
CCOc1c([C@H](C)n2nc(C)c3c(N)ncnc32)cc(Cl)c(F)c1[C@@H]1CNC(=O)C1,,,"patients, monotherapy","oral, 30 mg once daily, cycle 1 day 1",,Cmax,3270 ± 775 nM
O=C(O)CCC(=O)c1cccs1,USP13 ZnF-UBD domain,,,,,Kd,194 µM
N#Cc1ccccc1[C@@H]1COC[C@]2(CCOc3ccccc32)N1,,"shake-flask, LC-HRMS",aqueous buffer,"16 h, pH 6.8",,solubility,> 750 µM
